Experimental data pooled from the literature.
Protocols differ between the studies behind these lines. ± marks the error that the study gave.

Cc1ccc(C)c(Nc2cc(C(=O)NCCCN(C)C3CCCCC3)c3ccccc3n2)c1 gave a cytotoxicity efficacy of -29.8% (Vero-E6; CellTiter-Glo ATP; concentration not given, 72 h, second round 5-point; relative to: DMSO 0%, hyamine -100%, more negative, more toxic).
The brain-to-plasma ratio of CCCC(C(=O)c1ccc2c(c1)OCO2)N1CCCC1.Cl (racemic) is reported as 11.7 ± 1 (rat; subcutaneous, 4 mg/kg, 40 min).
For Cc1cc(OCC(O)CN2CCN(c3cccc(Cl)c3)CC2)ccc1Cl (centres unmarked), the cytotoxicity efficacy was 0% (Vero-E6; CellTiter-Glo ATP; concentration not given, 72 h, first round 5-point; relative to: DMSO 0%, hyamine -100%, more negative, more toxic).
The maximum inhibition of CC(=O)c1c(C)c2cnc(Nc3ccc(N4CCNCC4)cn3)nc2n(C2CCCC2)c1=O is reported as 0% (human coronavirus OC43; virus-induced cell killing; MRC-5; maximum over 10 doses).
COc1cc2c(Oc3ccc4[nH]c(C)cc4c3F)ccnc2cc1OCC1(N)CC1 — result for “grade 3 Hematuria”: 0% (paediatric recurrent refractory sarcoma; 10 mg).
Under tolerability, C[C@]1(CO)Cc2ncn(-c3ccc(C#N)c(Cl)c3)c2C(=O)O1 is recorded as “not toxic” (healthy men; single and multiple doses up to 80 mg).
For CC(=O)c1c(C)c2cnc(Nc3ccc(C4CCN(CCS(C)(=O)=O)CC4)cn3)nc2n(C2CCCC2)c1=O, the AUC(0-inf) was 0.679 µg·h/mL (human, plasma; oral, 75 mg twice daily, day 1, single dose, with: letrozole).
O=c1cnn([C@@H]2O[C@H](CO)[C@@H](O)[C@H]2O)c(=O)[nH]1 gave a maximum inhibition of 7.24% (human coronavirus OC43; virus-induced cell killing; MRC-5; screen).
For CC(=O)N1CCC(C(=O)N2CCN3C(=O)c4cc(-c5ccccc5)ccc4NC(=O)C3C2)CC1 (centres unmarked), “revertants per plate” read 14 (Salmonella typhimurium; TA1537; 15.8 µg/plate).
Under “dose-reducing adverse events”, CO[C@H]1C[C@@H]2CC[C@@H](C)[C@@](O)(O2)C(=O)C(=O)N2CCCC[C@H]2C(=O)O[C@H]([C@H](C)C[C@@H]2CC[C@@H](OC(=O)NCCOCCOCCOCCOCCOCCOCCOCCOCCC(=O)N3CCc4cc(Cn5nc(-c6ccc7oc(N)nc7c6)c6c(N)ncnc65)ccc4C3)[C@H](OC)C2)C[C@@H](O)[C@H](C)/C=C(\C)[C@@H](O)[C@@H](OC)C(=O)[C@H](C)C[C@H](C)/C=C/C=C/C=C/1C is recorded as 0% (phase 1 dose escalation, item: fatigue; advanced solid tumour patients; intravenous, 8 mg weekly, any grade).
The cytotoxicity efficacy of CC1CCCCN1CCCNC(=O)c1cc(Sc2cccc(Cl)c2)nc2ccccc12 (centres unmarked) is reported as -11.6% (Vero-E6; CellTiter-Glo ATP; concentration not given, 72 h, second round 5-point; relative to: DMSO 0%, hyamine -100%, more negative, more toxic).
O=C1c2c(O)c(=O)ccn2N([C@@H]2c3ccccc3SCc3c2ccc(F)c3F)[C@@H]2COCCN12 has a plasma concentration of 0.284 µg/mL (BALB/c mice, plasma; oral, 50 mg/kg baloxavir marboxil, 2 h).
COc1ccc(CC(=O)NC2CCN(Cc3ccc(-c4ccccc4OC)cc3)C2)cc1 (centres unmarked) gave a cytotoxicity efficacy of 0% (Vero-E6; CellTiter-Glo ATP; concentration not given, 72 h, first round 5-point; relative to: DMSO 0%, hyamine -100%, more negative, more toxic).
For CN1CC[C@@H](c2c(O)cc(O)c3c(=O)cc(-c4ccc(C(F)(F)F)cc4Cl)oc23)[C@@H]1CO, “patients with adverse event” read 0% (item: Neutropenia; relapsed B-cell malignancies; oral, 100 mg, grade 3-4, intermittent dosing).

Repeated from above:
The maximum inhibition of CC(=O)c1c(C)c2cnc(Nc3ccc(N4CCNCC4)cn3)nc2n(C2CCCC2)c1=O is reported as 0% (human coronavirus OC43; virus-induced cell killing; MRC-5; maximum over 10 doses).
